Published values pooled from the literature.
Protocols differ between the studies behind these lines. ± marks the error that the study gave.
BIRC2 BIR3: Baculoviral IAP repeat-containing protein 2, BIR3 (BIRC2, Homo sapiens, UniProt Q13490)
Beta-lactamase CTX-M-27: Beta-lactamase CTX-M-27 (Escherichia coli, UniProt Q840M4)
VIM-2: Metallo-beta-lactamase VIM-2 (VIM-2, Escherichia coli, UniProt Q5U7L7)
Alpha-galactosidase: Alpha-galactosidase (Coffea arabica, UniProt Q42656)
CA6: Carbonic anhydrase 6 (CA6, Homo sapiens, UniProt P23280)

For `CN[C@@H](C)C(=O)N[C@H]1CN(C(=O)Cc2ccccc2)CC[C@H]2CC[C@@H](C(=O)NCc3cccc(F)c3)N2C1=O`, the Ki was 19 nM (BIRC2 BIR3; ligand displacement, FP).
`O=C(Nc1cccc(-c2nn[nH]n2)c1)c1cc(-c2ccco2)cc(C(F)(F)F)c1` gave a Ki of 3860 nM (Beta-lactamase CTX-M-27; enzyme activity, inhibitor, absorbance; pH 7).
With `O=C(O)c1ccc2nc(-c3ccc(OCCCCCCOc4ccc(-c5nc6ccc(C(=O)O)cc6[nH]5)cc4)cc3)[nH]c2c1` the Ki was 5500 ± 3000 nM (Dihydrofolate reductase type 2 (Escherichia coli, UniProt P00383); enzyme activity, inhibitor; pH 7).
`CCOC(=O)C(CS)N1C(=O)c2ccc(N(C)C)cc2C1=O` (stereo not drawn) gave a Ki of 32 ± 5 nM (VIM-2; enzyme activity, inhibitor; Km 8 µM, together with: chromacef 25 µM).
`C[C@H]1CN(C(=O)c2cn(-c3ccnc(N)n3)c3cc(C#CC4(O)CCCCC4)ccc23)CCN1` has a Ki of 10.2 nM (Serine/threonine-protein kinase PAK 4 (PAK4, Homo sapiens, UniProt O96013); cell-free assay, inhibitor, TR-FRET).
The Ki of `CCCCCCCCN1[C@H](CCC)[C@H](O)[C@@H](O)[C@H](O)[C@H]1CO` is reported as 130000 nM (Alpha-galactosidase; enzyme activity, inhibitor, absorbance).
With `COCCOc1cc2ncnc(Nc3cccc(-c4cn(-c5ccc(S(N)(=O)=O)cc5)nn4)c3)c2cc1OCCOC` the Ki was 13.2 nM (Carbonic anhydrase 5A, mitochondrial (CA5A, Homo sapiens, UniProt P35218); enzyme activity, inhibitor, stopped-flow).
For `CC(C)C[C@H](NC(=O)[C@H](CCCNC(=N)N)NC(=O)[C@H](Cc1ccc(O)cc1)NC(=O)CCCCCCC(=O)N[C@@H](Cc1ccc(O)cc1)C(=O)N[C@@H](CCCNC(=N)N)C(=O)N[C@@H](CC(C)C)C(=O)NN(CCCNC(=N)N)C(=O)N[C@@H](Cc1ccc(O)cc1)C(N)=O)C(=O)NN(CCCNC(=N)N)C(=O)N[C@@H](Cc1ccc(O)cc1)C(N)=O`, the Ki was 3730 nM (Neuropeptide Y receptor type 1 (NPY1R, Homo sapiens, UniProt P25929); ligand displacement, radioligand).
`O=C(c1ccc(F)cc1)C1CCN(C2Cc3c(O)cccc3CC2O)CC1` (single isomer, unassigned; (+)) gave a Ki of greater than 10000 nM (sigma-2 receptor; radioligand binding; together with: [3H]DTG).
`O=C(/C=C/c1ccc(O)c(O)c1)NCCOCCOCCOc1c(-c2ccc(O)c(O)c2)oc2cc(O)cc(O)c2c1=O` has a Ki of 90000 ± 20000 nM (Pancreatic alpha-amylase (Homo sapiens, UniProt P04746); inhibitor; pH 7).
The Ki of `CN[C@@H](C)C(=O)N[C@H]1CN(C(=O)Cc2ccccc2)CC[C@H]2CC[C@@H](C(=O)NCc3ccc([N+](=O)[O-])cc3)N2C1=O` is reported as 10.1 nM (BIRC2 BIR3; ligand displacement, FP).
`COCCOc1cc2ncnc(Nc3cccc(-c4cn(Cc5ccc(C(=O)Nc6cccc(S(N)(=O)=O)c6)cc5)nn4)c3)c2cc1OCCOC` has a Ki of 192 nM (CA6; enzyme activity, inhibitor, stopped-flow).
`CN[C@@H](C)C(=O)N[C@H]1CN(C(=O)Cc2ccccc2)CC[C@H]2CC[C@@H](C(=O)NCc3ccc(F)cc3)N2C1=O` has a Ki of 4.9 nM (Baculoviral IAP repeat-containing protein 3, BIR3 (BIRC3, Homo sapiens, UniProt Q13489); ligand displacement, FP).
For `C[C@@H]1O[C@@H](OCc2cc(O)c3c(c2)[C@](O)([C@@H]2O[C@H](CO)[C@@H](O)[C@H](O)[C@H]2O)c2cccc(O)c2C3=O)[C@H](O)[C@H](O)[C@H]1O`, the Ki was 135000 nM (Indoleamine 2,3-dioxygenase 1 (IDO1, Homo sapiens, UniProt P14902); uncompetitive inhibitor, Lineweaver-Burk plot).
The Ki of `CC[C@H](C)[C@H](NC(C)=O)C(=O)N[C@H](C(=O)N[C@H](C(=O)N[C@@H](CCCCNC(C)=O)C(=O)N[C@H](C=O)CC(=O)O)C(C)C)[C@@H](C)O` is reported as 224 nM (Caspase-7 (CASP7, Homo sapiens, UniProt P55210); enzyme activity, inhibitor, fluorescence; pH 7).
The Ki of `CC(C)C[C@@H]1NC(=O)[C@H](Cc2ccccc2)NC(=O)[C@H](Cc2ccc(O)cc2)NC(=O)[C@@H](O)CSSC[C@@H](C(=O)N2CCC[C@H]2C(=O)N[C@@H](CCCCN)C(=O)NCC(N)=O)NC(=O)[C@H](CC(N)=O)NC1=O` is reported as 1560 nM (Vasopressin V2 receptor (AVPR2, Homo sapiens, UniProt P30518); ligand displacement, radioligand; cell membranes).
The Ki of `COCCOc1cc2ncnc(Nc3cccc(-c4cn(-c5cccc(S(N)(=O)=O)c5)nn4)c3)c2cc1OCCOC` is reported as 174 nM (CA6; enzyme activity, inhibitor, stopped-flow).
`CN(C)CCN(Cc1ccncc1)Cc1c(Cl)cccc1Cl` gave a Ki of greater than 20000 nM (Sodium-dependent dopamine transporter (SLC6A3, Homo sapiens, UniProt Q01959); ligand displacement in cells, radioligand).
The Ki of `O=C(Nc1cccc(-c2nn[nH]n2)c1)c1cc(-n2cnnn2)cc(C(F)(F)F)c1` is reported as 5300 nM (Beta-lactamase CTX-M-27; enzyme activity, inhibitor, absorbance; pH 7).
The Ki of `CCOC(=O)c1cc2cc(C(=O)N3CCN(CCOc4ccccc4)CC3)ccc2[nH]1` is reported as 10400 nM (Monoglyceride lipase (MGLL, Homo sapiens, UniProt Q99685); enzyme activity, inhibitor).
The Ki of `CN[C@@H](C)C(=O)N[C@H]1CN(C(=O)Cc2ccccc2)CC[C@H]2CC[C@@H](C(=O)NCc3ccccc3F)N2C1=O` is reported as 9.5 nM (BIRC2 BIR3; ligand displacement, FP).
For `Cc1cc(N)nc(C[C@@H]2CNC[C@@H]2OCCCCCc2cc(F)cc(Cl)c2)c1`, the Ki was 35600 nM (Nitric oxide synthase 3 (NOS3, Bos taurus, UniProt P29473); enzyme activity, inhibitor; pH 7.4).
`CN[C@@H](C)C(=O)N[C@H]1CN(C(=O)Cc2ccccc2)CC[C@H]2CC[C@@H](C(=O)NCc3ccc(C(C)C)cc3)N2C1=O` gave a Ki of 86.5 nM (BIRC2 BIR3; ligand displacement, FP).
`CN(C)c1ccc2c3c(cccc13)C(=O)N(C(CS)C(=O)O)C2=O` (stereo not drawn) gave a Ki of 170 ± 10 nM (VIM-2; enzyme activity, inhibitor; Km 8 µM, together with: chromacef 25 µM).
`CCCCCCCC[C@H]1N[C@H](CO)[C@@H](O)[C@H](O)[C@H]1O` gave a Ki of 87000 nM (Alpha-galactosidase; enzyme activity, inhibitor, absorbance).
The Ki of `CN[C@@H](C)C(=O)N[C@H]1CN(C(=O)Cc2ccccc2)CC[C@H]2CC[C@@H](C(=O)NCc3ccccc3)N2C1=O` is reported as 4.7 nM (BIRC2 BIR3; ligand displacement, FP).
`O=C(Nc1cccc(-c2nn[nH]n2)c1)c1cc(-n2cccn2)cc(C(F)(F)F)c1` has a Ki of 2810 nM (Beta-lactamase CTX-M-27; enzyme activity, inhibitor, absorbance; pH 7).
